Assay results collected from several papers.
Each numbered part is a random draw from the data of one study; scales do not carry over between parts.

Study 1 — method: protein binding microarray; form: double-stranded DNA, one strand shown; sample: in vitro; tested at: not given; baseline: not given; reading: higher = stronger binding
Target: Histone acetyltransferase KAT6A, winged helix 2, GST fusion (KAT6A, Homo sapiens, UniProt Q92794, residues 85-181)
Setting: 8-mer, flanks averaged, mean of 2 arrays, mostly near background
Residues (chain): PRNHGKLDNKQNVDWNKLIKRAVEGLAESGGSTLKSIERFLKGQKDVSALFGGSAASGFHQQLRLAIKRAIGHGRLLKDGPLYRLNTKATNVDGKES
The E-score of `ATTTCAGC` is reported as 0.08.
`TCTTGTCA` gave an E-score of -0.0166.
`ACTACTGG` has an E-score of -0.337.
With `CAACGGGG` the E-score was -0.0533.
The E-score of `CAGGTGAC` is reported as -0.126.
`ATTCCCTG` gave an E-score of 0.0226.
For `ATGCGTAC`, the E-score was -0.0573.
`GAATTTAA` has an E-score of 0.0388.
`ATATTCCG` has an E-score of 0.188.

Study 2 — method: aptamer microarray, sandwich; form: DNA with 2'F-ANA; sample: in vitro; tested at: 200 nM; with: Cy3 exosite-II aptamer, 400 nM; reading: higher = stronger binding; sequence: GGTTGGTGTGGTTGG
Target: Prothrombin, mature alpha-thrombin (F2, Homo sapiens, UniProt P00734)
Setting: whole 15-mer aptamer, many near background
For `2'F-ANA at 2 6 10 11 13 15`, “mean fluorescence intensity” read 103 a.u.
`2'F-ANA at 2 3 4 6 13 14` — result for “mean fluorescence intensity”: 225 a.u.
Under “mean fluorescence intensity”, `2'F-ANA at 2 4 6 7 8 9 10 12 14` is recorded as 65.5 a.u.
Under “mean fluorescence intensity”, `2'F-ANA at 1 2 3 4 6 8 10 11 12 15` is recorded as 67.9 a.u.
`2'F-ANA at 2 5 7 9 11`: “mean fluorescence intensity” 66.9 a.u.
`2'F-ANA at 1 2 4 5 9 10 11 12 14 15` — result for “mean fluorescence intensity”: 51.4 a.u.
For `2'F-ANA at 6 7 9 10 13`, “mean fluorescence intensity” read 141 a.u.

Study 3 — method: protein-binding microarray; form: double-stranded DNA, one strand shown; sample: in vitro; tested at: not given; reading: higher = stronger binding
Target: Transcriptional repressor CTCF (CTCF, Homo sapiens, UniProt P49711, residues 1-727, full length assumed)
Sequence of UniProt P49711 (whole entry, looked up): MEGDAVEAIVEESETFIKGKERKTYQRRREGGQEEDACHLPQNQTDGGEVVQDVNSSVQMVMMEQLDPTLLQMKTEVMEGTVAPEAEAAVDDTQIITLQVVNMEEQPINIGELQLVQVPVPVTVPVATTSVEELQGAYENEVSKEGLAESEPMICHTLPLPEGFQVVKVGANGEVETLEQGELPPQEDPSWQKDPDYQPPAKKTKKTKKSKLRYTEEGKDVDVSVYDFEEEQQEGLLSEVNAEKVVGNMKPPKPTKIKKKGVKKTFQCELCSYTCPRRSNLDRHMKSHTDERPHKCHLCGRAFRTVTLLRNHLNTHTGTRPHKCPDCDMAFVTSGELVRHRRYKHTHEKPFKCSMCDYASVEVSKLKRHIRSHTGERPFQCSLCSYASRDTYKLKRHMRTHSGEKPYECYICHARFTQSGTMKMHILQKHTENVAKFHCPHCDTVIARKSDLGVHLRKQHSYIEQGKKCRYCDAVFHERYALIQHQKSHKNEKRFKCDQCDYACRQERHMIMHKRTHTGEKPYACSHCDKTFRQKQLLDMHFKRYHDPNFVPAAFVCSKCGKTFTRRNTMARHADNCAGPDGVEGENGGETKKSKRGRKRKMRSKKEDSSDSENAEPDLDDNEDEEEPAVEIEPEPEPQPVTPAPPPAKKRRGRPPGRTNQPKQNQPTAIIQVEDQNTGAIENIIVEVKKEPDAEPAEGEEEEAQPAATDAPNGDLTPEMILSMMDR
Setting: k-mer, scored over probes, only values ≥0.25
The E-score of `GCATATAA` is reported as 0.271.
The E-score of `TACTATAA` is reported as 0.364.
`TGTTAACA` has an E-score of 0.269.
`TAATAAAA` has an E-score of 0.357.
`ATTGTTGA` gave an E-score of 0.254.
For `GAGTGCGC`, the E-score was 0.271.
`AAAACAAT` gave an E-score of 0.255.
For `AATTTATG`, the E-score was 0.285.
`ATTTATAA` has an E-score of 0.309.
With `AAAAATAT` the E-score was 0.314.
For `GAGTATTA`, the E-score was 0.294.
For `CTAATATA`, the E-score was 0.342.

Mixed results
With `PhoQ, residues 284 288 289 292 302 303 AQGLTV` the fold induction was 1.65 (PhoP, residues 12 14 15 18 19 GQALL (Escherichia coli, UniProt P23836); Sort-seq, item: YFP reporter; E. coli; PhoQ-PhoP variant library, with: 10 µM Mg2+; baseline: high Mg2+ state, higher = stronger signaling).

Repeated from above (study 3):
With `AAAAATAT` the E-score was 0.314.
`ATTTATAA` has an E-score of 0.309.
The E-score of `TACTATAA` is reported as 0.364.
